Published values pooled from the literature.
Each numbered part is a random draw from the data of one study; scales do not carry over between parts. Substitutions count along the parent as printed.
UniProt Q8IWQ3, sequence (whole entry, looked up): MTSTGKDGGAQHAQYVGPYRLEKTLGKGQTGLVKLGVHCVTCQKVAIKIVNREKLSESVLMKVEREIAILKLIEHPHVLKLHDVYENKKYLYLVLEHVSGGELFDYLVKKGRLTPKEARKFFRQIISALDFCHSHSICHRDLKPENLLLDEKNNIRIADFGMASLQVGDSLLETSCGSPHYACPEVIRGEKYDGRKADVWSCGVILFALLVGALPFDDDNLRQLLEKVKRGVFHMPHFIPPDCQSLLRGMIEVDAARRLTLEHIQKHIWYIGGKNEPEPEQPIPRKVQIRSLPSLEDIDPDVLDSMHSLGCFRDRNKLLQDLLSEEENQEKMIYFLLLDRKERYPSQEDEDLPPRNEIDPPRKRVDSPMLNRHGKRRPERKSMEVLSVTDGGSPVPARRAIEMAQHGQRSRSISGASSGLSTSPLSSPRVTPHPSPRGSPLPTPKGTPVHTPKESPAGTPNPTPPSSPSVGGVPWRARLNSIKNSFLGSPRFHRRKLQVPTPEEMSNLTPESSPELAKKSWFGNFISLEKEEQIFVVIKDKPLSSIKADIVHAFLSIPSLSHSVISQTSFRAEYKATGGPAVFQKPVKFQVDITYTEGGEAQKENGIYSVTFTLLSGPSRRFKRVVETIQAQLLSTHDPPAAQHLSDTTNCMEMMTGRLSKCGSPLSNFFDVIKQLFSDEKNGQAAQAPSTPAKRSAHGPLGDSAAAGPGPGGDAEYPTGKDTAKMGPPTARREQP

Series 1
Target: HLA class I histocompatibility antigen, C alpha chain, allele C*04:01 (Homo sapiens, UniProt P10321)
Read-out: peptide-MHC binding
Form: peptide
Tested at: concentration not given
| Sequence | binding |
| --- | --- |
| VLYHRYNLV | inactive |
| RPRLHSISF | inactive |
| MPAYIRNTL | inactive |
| YYNAFHWA | inactive |
| MSDWGHITV | inactive |
| TFMDHVLRY | inactive |
| RRRFVQNAL | inactive |

Series 2
Target: 5-hydroxytryptamine receptor 2A (HTR2A, Homo sapiens, UniProt P28223)
UniProt P28223, sequence (whole entry, looked up): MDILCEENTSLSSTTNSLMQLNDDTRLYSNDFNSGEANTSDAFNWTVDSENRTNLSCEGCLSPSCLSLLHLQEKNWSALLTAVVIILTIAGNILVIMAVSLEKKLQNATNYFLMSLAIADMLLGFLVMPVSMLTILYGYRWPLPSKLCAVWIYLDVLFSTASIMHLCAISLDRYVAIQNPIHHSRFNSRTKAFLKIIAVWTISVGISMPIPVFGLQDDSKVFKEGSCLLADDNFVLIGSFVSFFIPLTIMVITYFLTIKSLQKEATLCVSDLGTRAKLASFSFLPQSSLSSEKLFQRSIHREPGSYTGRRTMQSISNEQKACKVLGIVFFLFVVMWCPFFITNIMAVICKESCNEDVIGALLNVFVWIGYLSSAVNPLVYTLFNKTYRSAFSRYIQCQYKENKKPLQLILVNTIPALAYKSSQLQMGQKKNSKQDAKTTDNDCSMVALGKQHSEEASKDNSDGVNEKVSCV
Read-out: ligand displacement
Tested at: 10 µM
| Compound | inhibition [%] |
| --- | --- |
| CNC(=O)Nc1ccc2c(c1)[C@]1(CC2)OC(=O)N(CC(=O)N(Cc2ccc(F)cc2)[C@@H](C)C(F)(F)F)C1=O | 26.6 |
| COc1ccc2cc(OCC3(C(=O)O)CN(C(=O)c4ccc(F)cc4)C3)ccc2c1 | 6.25 |
| Cc1c(N2CCNCC2)nc2ccc(Br)cc2c1C(=O)NC[C@H](CCC(=O)O)c1ccccc1Cl | 38 |
| O=C(Nc1ccc(Oc2ccc(F)cc2)cc1)N1CCc2ncccc2[C@H]1c1ccc(F)cc1 | 54.5 |
| N#CN1CC[C@@H](C(=O)Nc2nc3c(s2)CN(C(=O)CN=[N+]=[N-])CC3)C1 | 3.66 |
| CO[C@@H](C)c1c(Nc2ccc([C@@H](N(C)C(=O)C3CCS(=O)(=O)CC3)C(F)(F)F)cc2)cnc2cc(Cl)nn12 | 4.93 |
| COc1ccc2c(c1)O[C@@H](c1ccc(OC)c(OC)c1)C[C@H]2NC(=O)C1(c2ccc3c(c2)OC(F)(F)O3)CC1 | 7.46 |
| CC1=C(C#N)C(c2ccc3[nH]nc(C)c3c2)C(C#N)=C(C)N1 | 8.75 |
| CN(C)c1ncnc(-c2ccc3nc(Nc4cc(CN5CCN(C(=O)CC(F)(F)F)CC5)ccn4)[nH]c3c2)c1Cl | -4.19 |
| COCCc1ccc(-c2c(C)nc3c(N4CCOCC4)ccnn23)cn1 | 45.9 |
| Cc1ccccc1Oc1cc(-n2c(=O)cc(C(F)(F)F)[nH]c2=O)c2ccccc2c1Cl | -2.88 |

Series 3
Target: ABI1, truncated, D143A, DHFR fusion (Arabidopsis thaliana)
Method: DHFR PCA, deep sequencing
Sample: yeast
Notes: methotrexate growth selection, single substitutions
Together with: (+)-ABA 0.39 µM
Baseline: wild-type fitted maximum
Direction: higher = stronger binding
Starting sequence: PYL1, truncated, DHFR fusion (Arabidopsis thaliana); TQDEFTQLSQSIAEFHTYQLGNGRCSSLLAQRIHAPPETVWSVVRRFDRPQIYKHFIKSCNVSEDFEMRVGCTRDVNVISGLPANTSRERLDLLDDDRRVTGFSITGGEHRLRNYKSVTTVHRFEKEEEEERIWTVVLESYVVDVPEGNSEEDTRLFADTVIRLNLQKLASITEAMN
| Change | relative binding score [%] |
| --- | --- |
| S11I | 40.2 |
| D144T | -3.17 |
| L8C | 16.1 |
| Q7P | 12 |
| P50A | 1.08 |
| E151W | 6.57 |
| G102N | -7.01 |
| P83F | 12.2 |

Mixed results
| SMILES | target | read-out | mode | tested at | baseline | measurement | value |
| --- | --- | --- | --- | --- | --- | --- | --- |
| O=C1NC(=O)c2c1c1c3ccccc3n3c1c1c2c2ccccc2n1[C@H]1CC[C@@H]3O1 | Serine/threonine-protein kinase BRSK2 (BRSK2, Homo sapiens, UniProt Q8IWQ3) | enzyme activity | inhibitor | 0.5 µM | control | remaining activity | 13.6% |
